Measurements from different studies.
Numbers after ± are the reported error.
Method: steady-state kinetics
B1: cyc1 F95H (Streptomyces coelicolor, UniProt Q9K499); chain MHAFPHGTTATPTAIAVPPSLRLPVIEAAFPRQLHPYWPKLQETTRTWLLEKRLMPADKVEEYADGLCYTDLMAGYYLGAPDEVLQAIADYSAWHFVWDDRHDRDIVHGRAGAWRRLRGLLHTALDSPGDHLHHEDTLVAGFADSVRRLYAFLPATWNARFARHFHTVIEAYDREFHNRTRGIVPGVEEYLELRRLTFAHWIWTDLLEPSSGCELPDAVRKHPAYRRAALLSQEFAAWYNDLCSLPKEIAGDEVHNLGISLITHHSLTLEEAIGEVRRRVEECITEFLAVERDALRFADELADGTVRGKELSGAVRANVGNMRNWFSSVYWFHHESGRYMVDSWDDRSTPPYVNNEAAGEK
B2: sacB Y196F (Priestia megaterium, UniProt D5DC07); chain KGNDSKDFNNSYGISHITRDNMVKIPQQQNSDQFKVPAFDESTIKNIASAKGKNASGNTIDLDVWDSWPLQNADGTVATYHGYQIVFALAGDPKDSNDTSVYLFYKKAGDKSIDSWKNAGRVFKDSDKFVPNDPHLKNQTQEWSGSGTLTKDGKVRLFYTDYSGKQFGKQTLTTAQVNMSQPNDNTLKVDGVEDYKSIFDGDGKIYQTVQQFIDEGGYDTGDNHTLRDPHYIEDNGHKYLVFEANTGTEDGYQGEDSLYNRAYYGGNNPFFQSEKKKLLEGSNKEKASLANGALGIIELNDDYTLKKVMKPLITSNTVTDEIERANIFKKDGKWYLFTDSRGSKMTIDGIGQDDVYMLGYVSNTLTGKYKPLNDTGLVLHMDLDPNDKTFTYSHFAVPQTKGDNVVITSYMTNRGFYEDNHSTFAPSFLVNIDGSKTSVVKDRVLEQGQLTVDED
B3: Cop6 (Coprinopsis cinerea, UniProt A8NCK5); chain MPAALPYNVSRDNKWDIKKIIQDFFKRCDVPYQVIPYDTELWNACLKRAKEKGYPVEPDSPMSLYRSFKVGVVITRTSYGHIQDYEILIWVATFTAFVTYADDAFQEDIQHLHSFARTFLQNEKHEHPVLEAFAQFLRESSIRFSHFVANTVVSSALRFMMSIALEFEGQNVSVSTEAREYPGYIRILSGLSDIYALFAFPMDLPRSTYIQAFPEQIDYINGTNDLLSFYKEELDCETVNFISAAATSQQVSKLEVLRNAAEKAAYSYDVVVNVLKPYPEALAAWKSFARGFCYFHTSSPRYRLGEMFHDFEHDLVCKCASCTEI
B4: alanine racemase H125A (Geobacillus stearothermophilus, UniProt P10724); chain MNDFHRDTWAEVDLDAIYDNVENLRRLLPDDTHIMAVVKANAYGHGDVQVARTALEAGASRLAVAFLDEALALREKGIEAPILVLGASRPADAALAAQQRIALTVFRSDWLEEASALYSGPFPIAFHLKMDTGMGRLGVKDEEETKRIVALIERHPHFVLEGLYTHFATADEVNTDYFSYQYTRFLHMLEWLPSRPPLVHCANSAASLRFPDRTFNMVRFGIAMYGLAPSPGIKPLLPYPLKEAFSLHSRLVHVKKLQPGEKVSYGATYTAQTEEWIGTIPIGYADGWLRRLQHFHVLVDGQKAPIVGRICMDQCMIRLPGPLPVGTKVTLIGRQGDEVISIDDVARHLETINYEVPCTISYRVPRIFFRHKRIMEVRNAIGRGESSA
B5: ycjS (Escherichia coli, UniProt P77503); chain MKSAMTSSPLRVAIIGAGQVADKVHASYYCTRNDLELVAVCDSRLSQAQALAEKYGNASVWDDPQAMLLAVKPDVVSVCSPNRFHYEHTLMALEAGCHVMCEKPPAMTPEQAREMCDTARKLGKVLAYDFHHRFALDTQQLREQVTNGVLGEIYVTTARALRRCGVPGWGVFTNKELQGGGPLIDIGIHMLDAAMYVLGFPAVKSVNAHSFQKIGTQKSCGQFGEWDPATYSVEDSLFGTIEFHNGGILWLETSFALNIREQSIMNVSFCGDKAGATLFPAHIYTDNNGELMTLMQREIADDNRHLRSMEAFINHVQGKPVMIADAEQGYIIQQLVAALYQSAETGTRVEL
B6: ERAP1 K528R (Homo sapiens, UniProt Q9NZ08); chain MVFLPLKWSLATMSFLLSSLLALLTVSTPSWCQSTEASPKRSDGTPFPWNKIRLPEYVIPVHYDLLIHANLTTLTFWGTTKVEITASQPTSTIILHSHHLQISRATLRKGAGERLSEEPLQVLEHPRQEQIALLAPEPLLVGLPYTVVIHYAGNLSETFHGFYKSTYRTKEGELRILASTQFEPTAARMAFPCFDEPAFKASFSIKIRREPRHLAISNMPLVKSVTVAEGLIEDHFDVTVKMSTYLVAFIISDFESVSKITKSGVKVSVYAVPDKINQADYALDAAVTLLEFYEDYFSIPYPLPKQDLAAIPDFQSGAMENWGLTTYRESALLFDAEKSSASSKLGITMTVAHELAHQWFGNLVTMEWWNDLWLNEGFAKFMEFVSVSVTHPELKVGDYFFGKCFDAMEVDALNSSHPVSTPVENPAQIREMFDDVSYDKGACILNMLREYLSADAFKSGIVQYLQKHSYKNTKNEDLWDSMASICPTDGVKGMDGFCSRSQHSSSSSHWHQEGVDVKTMMNTWTLQRGFPLITITVRGRNVHMKQEHYMKGSDGAPDTGYLWHVPLTFITSKSDMVHRFLLKTKTDVLILPEEVEWIKFNVGMNGYYIVHYEDDGWDSLTGLLKGTHTAVSSNDRASLINNAFQLVSIGKLSIEKALDLSLYLKHETEIMPVFQGLNELIPMYKLMEKRDMNEVETQFKAFLIRLLRDLIDKQTWTDEGSVSERMLRSQLLLLACVHNYQPCVQRAEGYFRKWKESNGNLSLPVDVTLAVFAVGAQSTEGWDFLYSKYQFSLSSTEKSQIEFALCRTQNKEKLQWLLDESFKGDKIKTQEFPQILTLIGRNPVGYPLAWQFLRKNWNKLVQKFELGSSSIAHMVMGTTNQFSTRTRLEEVKGFFSSLKENGSQLRCVQQTIETIEENIGWMDKNFDKIRVWLQSEKLEHDPEADATG
B7: protein (UniProt A0A4Y6I0S2); chain MTFEEKPMKFDGLDIEGVAFAPSVAALGSAKPLVLGGAGDRGLEINGNYIKFTAIGIYIEDGIIPHLSSKLSGKTVLELCEKDLLFEEVIYAPFEKLVRVVFIAPLTGIQYSEKVLERISVQALYTDIKEEHKQQFLEIFKGESFPPQSSAILSFSKEGLKVAFSKGDDVPAKAVGTIENARFADAVLGTIIWRDGVSPAAKVSLAERVSKYLQLGPSDGLASVPQSK
B8: GTPBP3 E159V (Homo sapiens, UniProt Q969Y2); chain TRRSSGAPAPGSGATIFALSSGQGRCGIAVIRTSGPASGHALRILTAPRDLPLARHASLRLLSDPRSGEPLDRALVLWFPGPQSFTGEDCVEFHVHGGPAVVSGVLQALGSVPGLRPAEAGEFTRRAFANGKLNLTEVVGLADLIHAETEAQRRQALRQLDGELGHLCRGWAETLTKALAHVEAYIDFGEDDNLEEGVLEQADIEVRALQVALGAHLRDARRGQRLRSGVHVVVTGPPNAGKSSLVNLLSRKPVSIVSPEPGTTRDVLETPVDLAGFPVLLSDTAGLREGVGPVEQEGVRRARERLEQADLILAMLDASDLASPSSCNFLATVVASVGAQSPSDSSQRLLLVLNKSDLLSPEGPGPGPDLPPHLLLSCLTGEGLDGLLEALRKELAAVCGDPSTDPPLLTRARHQHHLQGCLDALGHYKQSKDLALAAEALRVARGHLTRLTGGGGTEEILDIIFQDFCVGK
B9: enzyme P89Y (Thermobifida fusca, UniProt Q47RA9); chain MIMIMASKSSPHDLPDVSGLSIAVLGGTGDQGRGLARRFAMAGHEVILGSRSAERAQAVAAELGEGLPVRGMDNAGAAEAGDVVIVAVYWDGHRALLESLKDVLAGKIVVDCVNPLGFDKRGAYALPVEEGSAAEQAAAILPDSRVVAAFHHVSAVLLLDPEVEKVDLDVLVLGDDREATDVVRALAARIPGVRGVYGGRLRNAHQVEAFTANLISINRRYKAHAGIRITDI
B10: iodotyrosine deiodinase (Haliscomenobacter hydrossis, UniProt F4KU78); chain MKQKPAFIPYAGAQFEPEEMLSKSAEYYQFMDHRRTVREFSNRAIPLEVIENIVMTASTAPSGAHKQPWTFVVVSDPQIKAKIRQAAEKEEFESYNGRMSNEWLEDLQPFGTDWHKPFLEIAPYLIVVFRKAYDVLPDGTQRKNYYVQESVGIACGFLLAAIHQAGLVALTHTPSPMNFLQKILQRPENERPFLLVPVGYPAEGAMVPDLQRKDKAAVMVVY
B11: STH1425 (Symbiobacterium thermophilum, UniProt Q67PI3); chain MDKLRVAVVGYGNVGRYALEAVQAAPDMELVGVVRRKVLAATPPELTGVRVVTDISQLEGVQGALLCVPTRSVPEYAEAMLRRGIHTVDSYDIHGDLADLRRRLDPVAREHGAAAVISAGWDPGTDSIIRALLEFMAPKGITYTNFGPGMSMGHSVAVKAIPGVRDALSMTIPAGMGVHKRAVYVELEPGADFAEVERAIKTDPYFVRDETRVTQVESVSALMDVGHGVVMERKGVSGATHNQLFRFEMRINNPALTAQVMVAALRAAARQKPGCYTMIEIPVIDYLPGDREAWIRKLV

Substance	substrate	conditions	kcat/Km [M⁻¹ s⁻¹]
B1 (cyc1 F95H)	CC(C)=CCC/C(C)=C/CC/C(C)=C/CO[P@@](=O)(O)OP(=O)(O)O	pH 6.5, 30 °C, together with: MgCl2 10 mM	2600 ± 100
B2 (sacB Y196F)	OC[C@H]1O[C@@](CO)(O[C@H]2O[C@H](CO)[C@@H](O)[C@H](O)[C@H]2O)[C@@H](O)[C@@H]1O	pH 6.9	9600
B3 (Cop6)	CC(C)=CCC/C(C)=C/COP(=O)(O)OP(=O)(O)O	pH 8, 30 °C, together with: MgCl2 10 mM	24000
B4 (alanine racemase H125A)	C[C@@H](N)C(=O)O	pH 9, room temperature, together with: NAD+ 10 mM	820000
B5 (ycjS)	OC[C@H]1OC[C@H](O)[C@@H](O)[C@@H]1O	pH 8, 30 °C, together with: NAD+ 2.0 mM	81 ± 4
B6 (ERAP1 K528R)	CC(C)C[C@H](N)C(=O)N[C@@H](CO)C(=O)N[C@@H](CCCNC(=N)N)C(=O)N[C@@H](Cc1c[nH]cn1)C(=O)N[C@@H](Cc1c[nH]cn1)C(=O)N[C@@H](C)C(=O)N[C@@H](Cc1ccccc1)C(=O)N[C@@H](CO)C(=O)N[C@@H](Cc1ccccc1)C(=O)N[C@@H](CCCNC(=N)N)C(=O)O	25 °C	300000 ± 55000
B7 (protein)	O=C(/C=C/c1ccc(O)cc1)c1c(O)cc(O)cc1O	–	1.7e+06
B8 (GTPBP3 E159V)	Nc1nc2c(ncn2[C@@H]2O[C@H](COP(=O)(O)OP(=O)(O)OP(=O)(O)O)[C@@H](O)[C@H]2O)c(=O)[nH]1	pH 8, 37 °C, KCl 300 mM	481
B9 (enzyme P89Y)	NC(=O)c1ccc[n+](CCCO)c1	pH 8, 25 °C	0.34 ± 0.11
B10 (iodotyrosine deiodinase)	Cc1cc(C[C@H](N)C(=O)O)cc(I)c1O	pH 7.4, 25 °C	50000 ± 10000
B11 (STH1425)	O=C(O)C(=O)Cc1ccccc1	pH 9, 30 °C, reductive amination, together with: NH4Cl 200 mM, NADPH 0.5 mM	9 ± 2
Ptb (Listeria monocytogenes, UniProt Q8Y7B7)	CC(C)C(=O)SCCNC(=O)CCNC(=O)[C@H](O)C(C)(C)COP(=O)(O)OP(=O)(O)OC[C@H]1O[C@@H](n2cnc3c(N)ncnc32)[C@H](O)[C@@H]1OP(=O)(O)O	pH 7.5, 25 °C, apparent	2.14e+07

Some of these lines once more:
Substance	substrate	conditions	kcat/Km [M⁻¹ s⁻¹]
B7 (protein)	O=C(/C=C/c1ccc(O)cc1)c1c(O)cc(O)cc1O	–	1.7e+06
